Results gathered from unrelated publications.
Every numbered part comes from another study and shows a few of its results, in no order.
UniProt Q13882, sequence (whole entry, looked up): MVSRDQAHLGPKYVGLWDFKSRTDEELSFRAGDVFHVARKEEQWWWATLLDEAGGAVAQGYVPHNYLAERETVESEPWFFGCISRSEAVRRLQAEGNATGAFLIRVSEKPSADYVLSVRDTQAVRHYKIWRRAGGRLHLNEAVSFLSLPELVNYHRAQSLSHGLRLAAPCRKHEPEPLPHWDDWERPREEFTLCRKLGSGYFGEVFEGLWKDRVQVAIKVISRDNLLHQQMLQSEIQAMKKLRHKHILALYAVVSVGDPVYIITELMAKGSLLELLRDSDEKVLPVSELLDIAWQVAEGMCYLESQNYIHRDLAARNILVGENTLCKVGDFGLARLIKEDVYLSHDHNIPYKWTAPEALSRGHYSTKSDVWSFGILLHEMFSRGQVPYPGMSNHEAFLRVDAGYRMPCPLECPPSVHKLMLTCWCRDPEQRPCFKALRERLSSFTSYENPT

Block 1
Target: Interferon regulatory factor 7, full length, phosphomimetic (IRF7, Homo sapiens, UniProt Q92985, residues 1-503, S101K/S471D/S472D/S475D/S476D/S477D/S483D/S484D/S487D)
UniProt Q92985, sequence (whole entry, unmodified, looked up): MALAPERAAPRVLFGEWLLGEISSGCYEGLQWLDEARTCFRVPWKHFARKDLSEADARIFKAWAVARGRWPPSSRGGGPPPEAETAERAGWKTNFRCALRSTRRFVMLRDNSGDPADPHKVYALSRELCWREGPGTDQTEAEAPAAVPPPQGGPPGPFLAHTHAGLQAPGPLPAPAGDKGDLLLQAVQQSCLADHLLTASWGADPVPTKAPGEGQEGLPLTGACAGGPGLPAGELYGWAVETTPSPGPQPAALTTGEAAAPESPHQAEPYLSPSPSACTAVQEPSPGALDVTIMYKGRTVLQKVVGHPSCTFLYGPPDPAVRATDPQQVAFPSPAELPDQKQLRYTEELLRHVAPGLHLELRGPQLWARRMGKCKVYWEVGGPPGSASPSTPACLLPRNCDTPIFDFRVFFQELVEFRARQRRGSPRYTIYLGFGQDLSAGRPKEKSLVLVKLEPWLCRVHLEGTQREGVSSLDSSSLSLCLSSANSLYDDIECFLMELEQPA
Technique: protein-binding microarray
Molecule type: double-stranded DNA, one strand shown
Medium: in vitro
Concentration: 250 nM
Notes: 60-bp whole probe
With: salmon DNA 0.4 mg/ml
Baseline: random background probes
Direction: higher = stronger binding
Endpoint: log fluorescence
Shared flanks, not repeated: GCCTAGCAC … GTCTTGATTCGCTTGACGCTGCTG
Oligonucleotide = TTAGATTTCAGATTCGATTAGTGCTAG; value = 3.9 z-score
Oligonucleotide = GACGAACTGGGGTATGGAGACGTGCTA; value = -0.661 z-score
Oligonucleotide = TTAGATAACAGTTTCGATTAGTGCTAG; value = 8.46 z-score
Oligonucleotide = TTAGATATTGGGACTGGATTAGTGCTA; value = -0.0754 z-score
Oligonucleotide = TGAGGACTGGGGTATCGGTTAGTGCTA; value = -0.0941 z-score
Oligonucleotide = GACGGACTGGGTATCGGAACGTGCTAG; value = 0.0449 z-score
Oligonucleotide = TTAGGTATCGGGTTTCGGTTTGTGCTA; value = 11.5 z-score
Oligonucleotide = GACGATTTCAGATTGGAGACGTGCTAG; value = 0.267 z-score

Block 2
Target: Ras GTPase-activating protein-binding protein 1, full length (G3BP1, Homo sapiens, UniProt Q13283)
UniProt Q13283, sequence (whole entry, looked up): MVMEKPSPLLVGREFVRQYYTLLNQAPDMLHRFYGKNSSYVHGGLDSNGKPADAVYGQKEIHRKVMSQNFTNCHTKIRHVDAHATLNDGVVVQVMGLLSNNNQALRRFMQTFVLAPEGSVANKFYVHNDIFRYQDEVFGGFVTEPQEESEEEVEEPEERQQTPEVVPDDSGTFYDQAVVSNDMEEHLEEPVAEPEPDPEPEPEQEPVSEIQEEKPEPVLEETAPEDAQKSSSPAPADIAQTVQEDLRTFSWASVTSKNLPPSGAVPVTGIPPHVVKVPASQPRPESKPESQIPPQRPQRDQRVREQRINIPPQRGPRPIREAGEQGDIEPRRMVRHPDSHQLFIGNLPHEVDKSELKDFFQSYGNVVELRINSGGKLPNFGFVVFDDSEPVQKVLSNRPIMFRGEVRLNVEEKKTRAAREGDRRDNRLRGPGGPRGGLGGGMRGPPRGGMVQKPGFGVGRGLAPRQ
Technique: RNA Bind-n-Seq
Molecule type: RNA
Medium: in vitro
Concentration: 200 nM
Notes: whole 134-nt RNA, ends assumed
With: 150 mM KCl
Baseline: input library
Direction: higher = stronger binding
Endpoint: log2 enrichment
Oligonucleotide = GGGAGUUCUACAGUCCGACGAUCUAACUUUAGAGGAAGAUCUGAUGGAUAUGGCAGUGGACGUGGAUUUGGGGAUGGCUAUAAUGGGUAUGGAGGAGGACCUGGAGGUGGCAAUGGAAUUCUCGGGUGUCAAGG; value = 0.428
Oligonucleotide = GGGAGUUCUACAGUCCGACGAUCUGUGCUACACAUCGUAUGUACCGAAUCGGGCCCCCCCGGGGCCCCCCCGGGGCCCCCCCGGGAAAGUAUUAUGUUACGCCGUUCGGAUCUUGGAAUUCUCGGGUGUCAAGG; value = -2.2
Oligonucleotide = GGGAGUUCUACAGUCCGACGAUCCCUGUGCUACACAUCGUAUGUACCGAAUCGGGGUUUUUGGGGUUUUUUUGGGGAAAGGGGAAAGUAUUAUGUUACGCCGUUCGGAUCUGCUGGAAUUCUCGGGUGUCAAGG; value = 0.416
Oligonucleotide = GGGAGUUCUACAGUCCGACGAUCUCCUGUGCUACACAUCGUAUGUACCGAAUCAAACCCCCCCAAACCCAAAUUUUUUUAAAAAAGUAUUAUGUUACGCCGUUCGGAUCUGCAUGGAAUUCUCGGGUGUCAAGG; value = 0.0749
Oligonucleotide = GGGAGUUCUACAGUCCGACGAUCUGGCCCUGGUGGCAUGCGGGGAGGAAGAGGUGUCCUCAUGGAUCGUGGUGGUCCCGGUGGAAUGUUCAGAGGUGGCCGUGGUGGAGACAGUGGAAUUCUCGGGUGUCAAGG; value = 0.103
Oligonucleotide = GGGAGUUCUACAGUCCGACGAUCCUGUGCUACACAUCGUAUGUACCGAAUCGGGGUUUUUUGGGUUUUUUGGGGUUUUUUGGGGAAAGUAUUAUGUUACGCCGUUCGGAUCUGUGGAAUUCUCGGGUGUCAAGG; value = -0.489
Oligonucleotide = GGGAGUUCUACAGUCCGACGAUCAGUCCUGUGCUACACAUCGUAUGUACCGAAUCGGGGUUUUGGUUUUGGGGUUUUGGGGAAAGUAUUAUGUUACGCCGUUCGGAUCUGCACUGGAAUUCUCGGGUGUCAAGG; value = -0.187
Oligonucleotide = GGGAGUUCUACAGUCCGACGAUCCACAGACAACACGCACCCACACAGACACAGAGGGAAGGGGUUGGCAUGGGGACAGGGUGCACAGCAGGGCGGGGUAGGACCCCAGCCCCUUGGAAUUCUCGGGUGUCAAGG; value = 1.84

Block 3
Target: Hepatocyte nuclear factor 3-alpha (Foxa1, Mus musculus, UniProt P35582, residues 1-468, full length assumed)
Technique: EMSA with sequencing
Molecule type: double-stranded DNA, one strand shown
Medium: in vitro
Concentration: 10 and 20 nM
Notes: whole designed probe, mean of two concentrations, ends assumed
Baseline: negative control set to 0
Direction: higher = stronger binding
Endpoint: normalised bound fraction
Construct (chain): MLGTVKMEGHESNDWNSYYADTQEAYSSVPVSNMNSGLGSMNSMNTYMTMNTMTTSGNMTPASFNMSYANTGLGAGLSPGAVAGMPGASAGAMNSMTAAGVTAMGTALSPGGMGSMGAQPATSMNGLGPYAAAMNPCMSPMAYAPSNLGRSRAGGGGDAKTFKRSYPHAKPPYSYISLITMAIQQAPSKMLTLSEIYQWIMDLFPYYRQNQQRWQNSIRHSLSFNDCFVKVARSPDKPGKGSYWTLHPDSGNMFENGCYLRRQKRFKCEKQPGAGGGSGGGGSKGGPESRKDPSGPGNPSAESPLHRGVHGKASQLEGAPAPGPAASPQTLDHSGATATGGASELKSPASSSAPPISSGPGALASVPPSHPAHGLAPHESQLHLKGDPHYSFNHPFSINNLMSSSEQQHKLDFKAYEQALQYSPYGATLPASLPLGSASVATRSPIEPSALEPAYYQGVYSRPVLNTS
Oligonucleotide = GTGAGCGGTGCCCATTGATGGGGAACTAAAATGAAAAATAGATAACATAAAAAGGAAATAATTAAAACAAAGCCTAAGGTGATAAGAAGAAACTAAGTAAATAAGTAATATAAGAACAAAGTAAACATGAGATAAAAGAAAAGTCTTATGAAAGAGTAAGAAAAGATAAATCAACTAAGAACAATTAACTGTGAGACTGTAAAACAAAAGGACTAAAAGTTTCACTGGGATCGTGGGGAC; value = 0.527 ratio
Oligonucleotide = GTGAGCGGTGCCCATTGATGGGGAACATCTTCCCCCTCTTCCTTGCCCCACCAGCTCACCTACGGGGGTTATTTGCAGATAGGAAAATAAATAAAGCCGGCATTCGTTAACGCAGTTCACGCGCATACTGCTGTTTGCTCTGCATGAATCATGGTCCTTACGCGACGCCAGGCTCCGGGAGAGCAAAGCACCGTGTCAGGCGCATGATCCGGGCTCGCCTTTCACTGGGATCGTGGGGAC; value = 0.357 ratio
Oligonucleotide = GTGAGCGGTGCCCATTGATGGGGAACATCTTCCCCCTCTTCCTTGCCCCACCAGCTCACCTTCCCGGGTTGTTTACTTTGAGCAAAGTAAACAAAGCCGGCATTCGTTAACCCTCTTCTGGCGCAAACTGCTGTTTACTTTGGATCTAACATGGTCCTTTGGCGACGCCAGGCTCCGGGAGAGCAAAGCACCGTGTCAGGGCCATGATCCGGGGTGGCCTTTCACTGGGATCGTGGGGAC; value = 0.542 ratio
Oligonucleotide = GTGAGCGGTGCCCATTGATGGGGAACATCTTCCCCCTCTTCCTTGCCCCACCAGCTCACCTTCCCGGGTTATTTGCAGATAGGAAATTAATATAAGCCGGCATTCGTTAACCCTCTTCTGGCGCAAACTGCTGTTTGCTCTGGATGAATCATGGTCCTTTGGCGACGCCAGGCTCCGGGAGAGCAAAGCACCGTGTCAGGGCCATGATCCGGGGTGGCCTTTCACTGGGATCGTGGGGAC; value = 0.167 ratio
Oligonucleotide = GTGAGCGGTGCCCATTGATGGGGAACAGGTTGTCTGGACAAAAGTTGTATCTACCAAACTAAATGTGTACCAAGTGAGATATCCAAGGTCACTTAGCAAACATTCTGTTAGGGATAATGTAATCTTGAAAAGAAATTTAAGGATTTTTTTTTTTAAGACTGTTTTTGGAAACAACCAAGAGGAGAGACAAAAGGCACTTCAGTGAGGACTTTAAGCCAGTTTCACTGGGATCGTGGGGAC; value = 0.169 ratio
Oligonucleotide = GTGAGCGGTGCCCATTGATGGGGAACAGGCACAAGGTATGAATCACTAAGAATCTAGCAGCAGCTCTAGAAGCCTCCAAAGATAGGGGGTGGAGTATTGCACTTCCCCAACAGGGGGACGTAAATATGAAAGAACAGTGGATGGCCTAAATCAGTATGTGTCACTCTTTGTAAAGAGCCACAAGTGTTTGACTAGGGAAAAAGGAAAAGAGGCGAGAGTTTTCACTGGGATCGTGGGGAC; value = 0.017 ratio
Oligonucleotide = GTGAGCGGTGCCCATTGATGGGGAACCTTCCCACAGCCGACCTCCTCCGCCTGTCCCTCCCGCCACCCCGCCTGTCCCCCGCCTTTCCAGCAGCCTCCAAGTGGCAGGCTGGGTGCTGTGTCAATAAGGGTGTGTGCCCTGCCAGGTGCACGGGGCGGGTCGGGAACCGGTTACCTGGCGGGCGGGCGAGGCGCACCACCTGGCTCGTGCCTCACCGCGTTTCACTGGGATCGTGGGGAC; value = 0.284 ratio
Oligonucleotide = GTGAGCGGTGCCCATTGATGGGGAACAGGACATAAGCCAGCCCAGATAACAAGCTAAGAAATTTGTTTAGGCAGAAGGGGGAGCTAGAGCAAATCAGTTCACATGCTCTCTCTGTCTCCTGTTTACACTGTAGTATTACAGGTGTTAGACGGTAGCAAGTCCTAGAGAAGTGTGTTGTGTAAGTCACTGTCATTCAACATTGTAAACAGCTAGGTAAAATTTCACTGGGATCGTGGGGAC; value = 0.27 ratio

Other studies, line by line
Structure (SMILES) = CCCNC(=O)Nc1ccc(Oc2ncnc3cc(OC)c(OC)cc23)cc1Cl; target = Protein-tyrosine kinase 6 (PTK6, Homo sapiens, UniProt Q13882); observed = enzyme activity; action = inhibitor; concentration = 0.5 µM; baseline = control; endpoint = remaining activity; value = 48.3%
